Assay results pooled from the literature.
Every numbered part comes from another study and shows a few of its results, in no order.

Study 1 — technique: protein binding microarray; form: double-stranded DNA, one strand shown; matrix: in vitro; concentration: not given; baseline: not given; direction: higher = stronger binding
Target: Histone acetyltransferase KAT6A, both winged helices, GST fusion (KAT6A, Homo sapiens, UniProt Q92794, residues 1-181)
Setting: 8-mer, flanks averaged, mean of 2 arrays, mostly near background
Residues (chain): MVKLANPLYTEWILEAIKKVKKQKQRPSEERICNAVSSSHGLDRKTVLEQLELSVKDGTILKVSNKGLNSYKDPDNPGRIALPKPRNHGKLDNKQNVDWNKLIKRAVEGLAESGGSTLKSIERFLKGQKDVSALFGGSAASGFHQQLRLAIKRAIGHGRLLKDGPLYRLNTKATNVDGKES
| Sequence | E-score |
| --- | --- |
| AGGTTGCC | 0.0229 |
| GCGACCGA | 0.0998 |
| AGATATAC | -0.15 |
| CGAGAGCC | 0.0301 |
| GGCATTAC | 0.06 |

Study 2 — technique: protein-binding microarray; form: double-stranded DNA, one strand shown; matrix: in vitro; concentration: 940 nM top; setting: 60-bp whole probe; together with: salmon DNA 0.4 mg/ml; baseline: random background probes; direction: higher = stronger binding
Target: Interferon regulatory factor 5, full length, phosphomimetic (IRF5, Homo sapiens, UniProt Q13568-2, residues 1-514, S451D/S453D/S456D/S462D)
All sequences stand within: GCCTAGCAC … GTGCTAGGTCTTGATTCGCTTGACGCTGCTG
| Sequence | fitted relative affinity |
| --- | --- |
| TCAGTCTTCACTCTGCTACT | 0.905 z-score |
| GTCGGTATCCTTATCCTGAC | 1.07 z-score |
| TTAGATATCATACTGGATTA | -0.343 z-score |
| TTAGGTTTCAGTTCCGGTTA | 7.47 z-score |
| TTAGGTATCGGACTGGGGTA | 3.53 z-score |

Study 3 — technique: universal PBM; form: double-stranded DNA, one strand shown; matrix: in vitro; concentration: not given; direction: higher = stronger binding
Target: Sal-like protein 4, full length isoform B (SALL4, Homo sapiens, UniProt Q9UJQ4-2, residues 1-616)
Setting: 8-mer, flanks averaged, mean of replicates
| Sequence | E-score |
| --- | --- |
| GTAGAAAC | 0.00724 |
| GGCAAGCC | -0.294 |
| GAAGGTCC | -0.185 |
| AATGATAT | 0.373 |
| TCCACACA | -0.0629 |
| ATGGCTTA | 0.0737 |

Single results of other studies
| Molecule | target | test | test system | conditions | how to read | endpoint | value |
| --- | --- | --- | --- | --- | --- | --- | --- |
| PhoQ, residues 284 288 289 292 302 303 SIHLQL | PhoP, residues 12 14 15 18 19 NQAHL (Escherichia coli, UniProt P23836) | Sort-seq, measured: YFP reporter | E. coli | PhoQ-PhoP variant library, together with: 10 µM Mg2+ | baseline: high Mg2+ state, higher = stronger signaling | fold induction | 15.5 |

Excerpt of the above (study 2):
| Sequence | fitted relative affinity |
| --- | --- |
| TCAGTCTTCACTCTGCTACT | 0.905 z-score |
